Measured values from different studies.
Each numbered part is a random draw from the data of one study; scales do not carry over between parts. Changes are numbered by the printed parent chain.

Sample 1 — method: RNA Bind-n-Seq; form: RNA; sample: in vitro; tested at: 100 nM; relative to: input RNA pool; reading: higher = stronger binding
Target: RING finger protein unkempt homolog, zinc fingers 1-6, SBP tag (UNK, Homo sapiens, UniProt Q9C0B0, residues 30-357)
UniProt Q9C0B0, sequence (30-357, looked up): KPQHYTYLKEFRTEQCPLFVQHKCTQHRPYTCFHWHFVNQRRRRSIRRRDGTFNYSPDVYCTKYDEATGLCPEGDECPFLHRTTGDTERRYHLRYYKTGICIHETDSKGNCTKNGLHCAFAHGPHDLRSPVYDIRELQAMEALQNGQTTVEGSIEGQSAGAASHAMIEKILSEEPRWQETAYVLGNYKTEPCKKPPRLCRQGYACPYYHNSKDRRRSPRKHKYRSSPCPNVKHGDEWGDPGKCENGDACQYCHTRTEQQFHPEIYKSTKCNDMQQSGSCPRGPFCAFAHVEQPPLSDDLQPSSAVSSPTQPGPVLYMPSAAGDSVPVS
Notes: RNA with constant flanks, vertebrate orthologous sites, ends assumed
All sequences stand within: GGGAGUUCUACAGUCCGACGAUC … CAACAGAGGAUUGAGCAUCA
`CUCUCUUAGUGAUAGUAUUCCAUCUGUAGCAGAUUCUCACUCGAGUCAUUUUUCUGAGUUUAGUUGCUCAGAUAUGGAAAGUAUGAAAACUUCCUGCAGCCAUGGUUCCAGCGACUAUCA` gave a bound/input enrichment of 0.448 ratio.
`AUCUGGACCUUUGGAGCCGAACCAGAGAGCUAGCAAAAGUAAGGCAGACUUGUAAAAUUAUAGCCAUGUACAGCUGCACAACAACAGUCCUACCACUAGCAGCUGCGUUAAAGUAUUUAU` gave a bound/input enrichment of 0.466 ratio.
`CCAGGCUUGGAUCCUGCACCGCUGUCCACUUCUGCAUCCUGUCCUUCGCCUCCCCGUCACACAGCUCCUGCAAACAUGAAGUGAAUAAAGUUGUGUGUGUGAAAUGGAACUGCCACAUAA` gave a bound/input enrichment of 0.482 ratio.
For `CUCUAUGGGCCUCGCAGAGUUGAAAUAAUGGAAGAGGAAACUGAACAGUAAUCUUCAUUUUAGUAUUUAUGCUUAGGUGUGAAAUAAAUGUUACUCAUUGAUCAUUUCUGUAAUCCAGAG`, the bound/input enrichment was 0.467 ratio.
`GCAAUGAAAAAGCAUCCCUUCUCCCAGCCCCCUUUUCACUAGGAGAUACAAACGUUACCAUAGAAGAGCAAUUAAACUCAGUAAAUUUAUCUUUUCAGGAUGAUCCAGACUCCAGUACCA` gave a bound/input enrichment of 1.23 ratio.
With `UUCAUUACCUGAGCCGAGUGGAGGUGACGGAGUUUGAAGACAUCAAGUCAGGCUACAGAAUAGAUUUUUGUUUAAUGGUUUCACGUAACACUUUAGUGACUAUUUUUAUUUAUUUAAUUA` the bound/input enrichment was 1.09 ratio.
The bound/input enrichment of `UGACCACACAUACAAAAUGUGCUUUGAGCGGUGGGCGUGAGUGAAGCCAAGGCUUGAGUAGAAUUCACUUUUUAGACCUAUACAGCACGGAAGCGUCCAUGAGCCAGAGGUGAGUUCUUA` is reported as 0.361 ratio.
`AGAAAAUUUCAACCAAGAAUCUGAAGGUAGAAGUACAGGACCGUGGUUGUCUUCCUCACUUAGGAAUAGAUGCACACCCUUGUUCUCUAGAAGGAGGCGUGAGGGAAGAGAUGAGUCCUC` gave a bound/input enrichment of 0.536 ratio.
With `UUGCUUGUUUUGCAUAAGAGUUUGUAUUAAAGAACUUCAAAGGAAGGAACAGGGAUACUCUAGCAGUGGUCCUCAGGUGCCUGGCCUCCAGUACCCCACUUGGAACCACCCUGUCAGGGU` the bound/input enrichment was 0.205 ratio.
With `UGGGUUACUCCUAUUAUUAUCAAGUAGCUGGAAUUGUGAAGGUCGGAGUAGUUAGAUCUUUAGCUUUUAUUCCUUAUUUUUUUUUUUGUAUUACUCUCCAUGUGUAUAAAUUAUUGAUCA` the bound/input enrichment was 6.38 ratio.
The bound/input enrichment of `UGAUUUUCAAUCUCUUCUCCCUUAUCCUGAUUUUAAAAGCCCUUCUUCUUCUUUUUUUAGGCAUAUGUAGUAACAUGAGCAGAAAGAUUUAAUUUGGGCAACUUUGAUUCUUAAAAAAGA` is reported as 0.333 ratio.

Sample 2 — target: CCNB2, cyclin fold, Cln2 fusion (human); method: yeast growth competition, sequencing; sample: yeast; notes: weak parent motif; relative to: not given; reading: higher = stronger binding
Starting sequence: CDKN1A docking peptide (human); SKACRRLFGPVDS
For `SKACRRLFGPMDS [V11M]`, “normalised enrichment score” read 0.0224.
`SKACRFLFGPVDS [R6F]` — result for “normalised enrichment score”: 0.229.
Under “normalised enrichment score”, `SKRCRRLFGPVDS [A3R]` is recorded as 0.471.
`SKACRRLFGSVDS [P10S]`: “normalised enrichment score” 0.32.
`SKACRRLFGMVDS [P10M]`: “normalised enrichment score” -0.0748.
For `SKACRRLFGPVTS [D12T]`, “normalised enrichment score” read 0.0553.
`SKAARRLFGPVDS [C4A]`: “normalised enrichment score” 0.1.
Under “normalised enrichment score”, `SKECRRLFGPVDS [A3E]` is recorded as 0.311.
Under “normalised enrichment score”, `SKMCRRLFGPVDS [A3M]` is recorded as 0.766.
Under “normalised enrichment score”, `SVACRRLFGPVDS [K2V]` is recorded as 0.844.
For `SKACRRLGGPVDS [F8G]`, “normalised enrichment score” read 0.201.
For `SKACRQLFGPVDS [R6Q]`, “normalised enrichment score” read -0.0799.
Under “normalised enrichment score”, `SKACRRLFGPVGS [D12G]` is recorded as 0.0444.
For `SKACRRRFGPVDS [L7R]`, “normalised enrichment score” read 0.401.
`SKACRRLFGCVDS [P10C]` — result for “normalised enrichment score”: 0.0808.
`SKACRPLFGPVDS [R6P]` — result for “normalised enrichment score”: -0.544.
For `SKAKRRLFGPVDS [C4K]`, “normalised enrichment score” read 0.163.
For `SKACRVLFGPVDS [R6V]`, “normalised enrichment score” read -0.18.
`SMACRRLFGPVDS [K2M]`: “normalised enrichment score” 0.479.
`SNACRRLFGPVDS [K2N]` — result for “normalised enrichment score”: 0.219.
`SEACRRLFGPVDS [K2E]` — result for “normalised enrichment score”: 0.0514.
Under “normalised enrichment score”, `SKACRILFGPVDS [R6I]` is recorded as -0.196.
`SKACRSLFGPVDS [R6S]` — result for “normalised enrichment score”: 0.0339.
`SKACRRLFGPWDS [V11W]` — result for “normalised enrichment score”: 0.407.
For `SKACRRLFGPVIS [D12I]`, “normalised enrichment score” read 0.498.

Sample 3 — method: RNA Bind-n-Seq; form: RNA; sample: in vitro; tested at: 365 nM; relative to: no-protein control; reading: higher = stronger binding
Target: RNA binding protein fox-1 homolog 2, RRM domain, GST-SBP tag (RBFOX2, Homo sapiens, UniProt O43251-10, residues 100-194)
Notes: natural RNA segment, single round, ends assumed
All sequences stand within: GGGAGUUCUACAGUCCGACGAUC … UGGAAUUCUCGGGUGCCAA
For `GGGCGGGCCAGCGGGCACCAGGACUGGUCUCCUCUGCGCUCUGAUUUGUUGACUGAAACUGUAAGGGGAUCUCUCCCAGAGACUUGACAUUUUAGCUUUAUGUGUCUUAA`, “RBNS enrichment (R)” read 0.841.
`GACCCAGCUGUCUGGCACUCAAACGGUCUCUGCAGCCACAGUUUUAUCAAGUAUCCUGUAUGUGUUCCUUUGUAAACCGGUACUCAUGAAUGAGGGAAAGUCUGAUGCUA`: “RBNS enrichment (R)” 2.41.
`GCCAGACCUUCUGCUACCUCUCAUAGAAUUGCUCUGUAAUUCUAAAUUUAAAAUUAGAAGUAGAGAGAGAUAAGCCAUCGCCCCUUUGCCUCUGAGAAUUGGCUGCUGUU` — result for “RBNS enrichment (R)”: 1.42.
`ACGUCGGAUGCUACCCCACUAUGACAGAGGAUUGUGGUCACAACUUGAUGGCUGCGAAGACCUACCCUCCGUUUUUCUACUAGAUAGGAGGAUGGUAGAAGUUUGGCUGC`: “RBNS enrichment (R)” 0.392.
`CUGCUUUGCCUUGCUGCCUGUGCAAAUGUUGGACAAGCAGACACACUCACACUCGUCCCCAGCUUAGCACAGAGCUGGAGCGCCCAUUUCUGGAAUUUUCCGUUUGGGAA`: “RBNS enrichment (R)” 1.36.
`CCCCCUGCUCUGCCCUCCACGGAAUUGGAUUCCAAGGGCUGUUCCAGACAACUGCCAACGUCACUGAGGGCCCUGCUCUGAAGCCCUGGGCCCUGGCUCCAUUAACCUAA`: “RBNS enrichment (R)” 0.388.
`GCAACAGCAGCAGCAGCAGCAGCAGCAGCAGCAGAGACCUCUCCACUUUCCCUUAGCCCCUCUGCUGGGUAGAGAGGCACUUUCAGGGACUUCCCUCCAGCUGCCUCUUC`: “RBNS enrichment (R)” 0.428.
`UCUACAAGAUCUUCGUUAAGAGUCAAGCUGCCGGUCAGGAGUCUGACAUUUGAAUCGUGUUGUGAUUUACAAAAAAAAAAAAAAAAAACCCUUCUGGUAGAUUUUAAUGA`: “RBNS enrichment (R)” 0.891.
`CAAGCGCAUUACCCACUUGUGGCCAAUCAGUGGCCAGGCCAACCUUGGCUAAAUGGAGCAGCGAAAUCAACGAGAAACUGGACUUUUUAAACCCUCUUCAGAGCAAGCGU` — result for “RBNS enrichment (R)”: 0.376.
Under “RBNS enrichment (R)”, `UUUUUAAUUUAAAGGUUAAACUUGAAGAAAGUCUUUAUUCACGGUGCCAAAAUUCAUUUUUCUAACUCUGUGUGUUAGGAAAUAAUGAAAAAUAAAAUAAUUUAAAAUAA` is recorded as 0.735.
For `UUGUUUGGUUAUUUGUUUGUUUGAUUUUAACUAGAUGACUGUCUUCAGAAUAAUCCUCACAGUUCUGGAAGAUUGAAAAACCAAGUUCACAUGACAAGAACAAACCCGGU`, “RBNS enrichment (R)” read 0.665.
`AAUAUUUUUAACUUGGGGCAGGAAGAAGGGAGCAGCAGAGAAUUGACUAGAUAUAGCACCUAUUAAAAGAGAACUCUUGCUUCUUCUGAGAUUUUUCAAGCUGUGCUUUG`: “RBNS enrichment (R)” 0.902.

Sample 4 — method: RNA Bind-n-Seq; form: RNA; sample: in vitro; tested at: 200 nM; notes: whole 134-nt RNA, ends assumed; with: 150 mM LiCl; relative to: input library; reading: higher = stronger binding; all molecules: 7-deaza-guanosine replaces G
Target: Ras GTPase-activating protein-binding protein 1, full length (G3BP1, Homo sapiens, UniProt Q13283)
UniProt Q13283, sequence (whole entry, looked up): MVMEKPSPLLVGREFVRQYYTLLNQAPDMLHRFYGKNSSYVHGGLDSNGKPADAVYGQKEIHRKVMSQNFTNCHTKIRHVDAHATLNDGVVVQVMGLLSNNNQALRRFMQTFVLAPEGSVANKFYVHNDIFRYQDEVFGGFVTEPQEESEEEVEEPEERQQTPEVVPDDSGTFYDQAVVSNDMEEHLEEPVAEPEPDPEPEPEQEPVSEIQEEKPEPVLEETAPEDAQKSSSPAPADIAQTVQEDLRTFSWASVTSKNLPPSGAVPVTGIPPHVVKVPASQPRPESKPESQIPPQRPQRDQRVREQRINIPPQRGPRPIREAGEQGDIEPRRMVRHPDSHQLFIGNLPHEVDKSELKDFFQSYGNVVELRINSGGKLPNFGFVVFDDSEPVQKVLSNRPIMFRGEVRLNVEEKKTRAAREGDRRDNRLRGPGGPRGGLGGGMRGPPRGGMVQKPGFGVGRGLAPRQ
All sequences stand within: GGGAGUUCUACAGUCCGACGAUC … UGGAAUUCUCGGGUGUCAAGG
The log2 enrichment of `GCAGGAAGUAAAAACAAAUGGAAAUGCUUCGGAUAGUGGCAGGGGUGGGGGUUGCUAAGGAAAGGGUGGGAGGGGAGUGGGUAAAGAGUU` is reported as -0.498.
The log2 enrichment of `UGGAUUAGAGAGAAAUUGAAUUUUUUCUUACUUGAACUCCUACUAAAAAGUGAACUAAAUAUUUUAUUGUAGUAAUGGCAUAGAGGAGCC` is reported as -2.81.
For `UCCUGUGCUACACAUCGUAUGUACCGAAUCGGGUUUUUUGGUUUUUUGGGUUUUUUGGGGAAAGUAUUAUGUUACGCCGUUCGGAUCUGC`, the log2 enrichment was -0.802.
`GUCCUGUGCUACACAUCGUAUGUACCGAAUCGGGGUUUUUGGGGUUUGGGGUUUGGGGAAAGUAUUAUGUUACGCCGUUCGGAUCUGCAC` has a log2 enrichment of -0.385.
With `UUCAGUUUCCCAAACCUGAGAUGAUCUGUCAGCUGGAGAACUGGGACGAGCAGUGGAUCCUGGAUCUACCGAGAACUGGGAAUAGGAAGG` the log2 enrichment was 0.915.
With `CCUCAAGUCCUGUGCUACACAUCGUAUGUACCGAAUCGGGCGGGCGGGGCGGGAAAGUAUUAUGUUACGCCGUUCGGAUCUGCACUUCCA` the log2 enrichment was -0.16.
For `AAGUCCUGUGCUACACAUCGUAUGUACCGAAUCGGGAAAAGGGAAAAGGGAAAAGGGAAAGUAUUAUGUUACGCCGUUCGGAUCUGCACU`, the log2 enrichment was 0.341.
The log2 enrichment of `CCUCAAGUCCUGUGCUACACAUCGUAUGUACCGAAUCGGGUGGGUGGGGUGGAAAGUAUUAUGUUACGCCGUUCGGAUCUGCACUUCCAG` is reported as -1.09.
`GUCCUGUGCUACACAUCGUAUGUACCGAAUCGGGAAAAAGGGAAAGGGAAAAAAAGGGAAAGUAUUAUGUUACGCCGUUCGGAUCUGCAC` gave a log2 enrichment of 0.158.
`GUCCUGUGCUACACAUCGUAUGUACCGAAUCGGGUUUGGGAAAAAAAGGGUUUUUGGGAAAGUAUUAUGUUACGCCGUUCGGAUCUGCAC` gave a log2 enrichment of -1.56.
The log2 enrichment of `AGUCCUGUGCUACACAUCGUAUGUACCGAAUCGGGAAAGGGUUUGGGUUUUUUUGGGAAAGUAUUAUGUUACGCCGUUCGGAUCUGCACU` is reported as -1.54.

Excerpt of the above (sample 4):
`GUCCUGUGCUACACAUCGUAUGUACCGAAUCGGGGUUUUUGGGGUUUGGGGUUUGGGGAAAGUAUUAUGUUACGCCGUUCGGAUCUGCAC` has a log2 enrichment of -0.385.
With `UUCAGUUUCCCAAACCUGAGAUGAUCUGUCAGCUGGAGAACUGGGACGAGCAGUGGAUCCUGGAUCUACCGAGAACUGGGAAUAGGAAGG` the log2 enrichment was 0.915.
With `CCUCAAGUCCUGUGCUACACAUCGUAUGUACCGAAUCGGGCGGGCGGGGCGGGAAAGUAUUAUGUUACGCCGUUCGGAUCUGCACUUCCA` the log2 enrichment was -0.16.
For `AAGUCCUGUGCUACACAUCGUAUGUACCGAAUCGGGAAAAGGGAAAAGGGAAAAGGGAAAGUAUUAUGUUACGCCGUUCGGAUCUGCACU`, the log2 enrichment was 0.341.
The log2 enrichment of `CCUCAAGUCCUGUGCUACACAUCGUAUGUACCGAAUCGGGUGGGUGGGGUGGAAAGUAUUAUGUUACGCCGUUCGGAUCUGCACUUCCAG` is reported as -1.09.
`GUCCUGUGCUACACAUCGUAUGUACCGAAUCGGGAAAAAGGGAAAGGGAAAAAAAGGGAAAGUAUUAUGUUACGCCGUUCGGAUCUGCAC` gave a log2 enrichment of 0.158.
